Results pooled from the literature.
Protocols differ between the studies behind these lines.
Organism: Pseudomonas aeruginosa

| SMILES | method | strain | medium | time | temperature | MIC |
| --- | --- | --- | --- | --- | --- | --- |
| CC[C@H](C)[C@H](NC(=O)[C@H](CC(=O)O)NC(=O)[C@H](Cc1ccccc1)NC(=O)[C@H](CC(C)C)NC(=O)CN)C(=O)N[C@H](C(=O)N[C@@H](CCCCN)C(=O)N[C@@H](CCCCN)C(=O)N[C@H](C(=O)N[C@H](C(=O)NCC(=O)N[C@@H](C)C(=O)N[C@@H](CC(C)C)C(=O)NCC(N)=O)C(C)C)C(C)C)C(C)C | – | ATCC 19606 | CAMHB | 18 h | 37 °C | > 23 µM |
| CC[C@H](C)[C@H](NC(=O)[C@H](CC(=O)O)NC(=O)[C@H](CCC(N)=O)NC(=O)[C@H](CCCNC(=N)N)NC(=O)[C@H](CCCNC(=N)N)NC(=O)[C@H](CCC(N)=O)NC(=O)[C@H](CO)NC(=O)[C@@H](N)Cc1c[nH]cn1)C(=O)N[C@@H](CC(C)C)C(=O)N[C@@H](CC(=O)O)C(=O)N[C@@H](CC(C)C)C(=O)N[C@@H](Cc1c[nH]c2ccccc12)C(=O)N[C@H](C(=O)N[C@@H](Cc1ccc(O)cc1)C(=O)N[C@@H](Cc1c[nH]cn1)C(=O)N[C@H](C(=O)N[C@@H](CCC(N)=O)C(=O)NCC(=O)N[C@@H](Cc1ccc(O)cc1)C(=O)N[C@@H](Cc1ccccc1)C(=O)O)[C@@H](C)O)[C@@H](C)CC | broth microdilution | PTCC 1074 | – | overnight | 37 °C | 20 µM |
| CC[C@H](C)[C@H](NC(=O)[C@H](Cc1c[nH]cn1)NC(=O)[C@H](Cc1c[nH]cn1)NC(=O)[C@H](Cc1ccccc1)NC(=O)[C@@H](N)Cc1ccccc1)C(=O)N[C@@H](Cc1ccccc1)C(=O)N[C@@H](CCCNC(=N)N)C(=O)NCC(=O)N[C@@H](C)C(=O)N[C@H](C(=O)N[C@@H](Cc1c[nH]cn1)C(=O)N[C@H](C(=O)NCC(=O)N[C@@H](CCCCN)C(=O)N[C@H](C(=O)N[C@H](C(=O)N[C@@H](Cc1c[nH]cn1)C(=O)N[C@@H](CCCNC(=N)N)C(=O)N[C@@H](CC(C)C)C(=O)N[C@H](C(=O)N[C@H](C(=O)NCC(N)=O)[C@@H](C)O)C(C)C)[C@@H](C)CC)[C@@H](C)O)C(C)C)C(C)C | broth microdilution | ATCC 10662 | – | 18 h | 37 °C | 25 mg/L |
| CC[C@H](C)[C@H](NC(=O)[C@H](CC(C)C)NC(=O)CNC(=O)[C@@H]1CCCN1C(=O)[C@H](CC(C)C)NC(=O)[C@H](C)NC(=O)[C@H](CCCCN)NC(=O)CNC(=O)[C@H](CC(C)C)NC(=O)[C@H](CCSC)NC(=O)[C@H](CCCCN)NC(=O)[C@H](C)NC(=O)[C@H](C)NC(=O)[C@H](C)NC(=O)CNC(=O)[C@H](Cc1c[nH]c2ccccc12)NC(=O)[C@@H](N)Cc1ccccc1)C(=O)N[C@@H](CO)C(=O)N[C@@H](CCSC)C(=O)N[C@@H](Cc1ccccc1)C(=O)N[C@@H](CCC(N)=O)C(=O)N[C@@H](CCCCN)C(=O)N[C@@H](CC(N)=O)C(=O)O | broth microdilution | ATCC 27853 | – | 20 h | 37 °C | > 40 µM |
| CC[C@H](C)[C@H](NC(=O)[C@H](CC(=O)O)NC(=O)[C@H](Cc1ccccc1)NC(=O)[C@H](CC(C)C)NC(=O)CN)C(=O)N[C@H](C(=O)N[C@@H](CCCCN)C(=O)N[C@@H](CCCCN)C(=O)N[C@H](C(=O)N[C@H](C(=O)NCC(=O)N[C@@H](CC(C)C)C(=O)N[C@@H](CC(C)C)C(=O)N[C@@H](CCCCN)C(N)=O)C(C)C)C(C)C)C(C)C | – | ATCC 19606 | CAMHB | 18 h | 37 °C | > 21 µM |
| Cn1ccc(=O)nc1Sc1ccc([N+](=O)[O-])cc1[N+](=O)[O-] | – | ATCC 29853 | – | – | – | 125 mg/L |
| CC[C@H](C)CCCCC(=O)N[C@@H](CCN)C(=O)N[C@H](C(=O)N[C@@H](CCN)C(=O)N[C@H]1CCNC(=O)[C@H]([C@@H](C)O)NC(=O)[C@H](CCN)NC(=O)[C@H](CCN)NC(=O)[C@H](CC(C)C)NC(=O)[C@@H](CC(C)C)NC(=O)[C@H](CCN)NC1=O)[C@@H](C)O | – | PAO1 | LB medium | – | – | 0.21 µM |
| CC[C@H](C)[C@H](NC(=O)[C@H](CCCNC(=N)N)NC(=O)[C@H](Cc1c[nH]c2ccccc12)NC(=O)[C@H](CCCNC(=N)N)NC(=O)[C@@H](N)CCCCN)C(=O)N[C@@H](CCCNC(=N)N)C(=O)N[C@H](C(=O)N[C@@H](CCCNC(=N)N)C(=O)N[C@H](C(=O)N[C@H](C(=O)N[C@@H](CCCNC(=N)N)C(=O)N[C@@H](CCCCN)C(=O)N[C@@H](CS)C(=O)O)[C@@H](C)CC)C(C)C)C(C)C | – | ATCC 27853 | – | 24 h | 37 °C | 40 µM |
| N=C(N)NCCC[C@H](NC(=O)[C@H](Cc1c[nH]cn1)NC(=O)[C@@H]1CCCN1C(=O)[C@H](CS)NC(=O)[C@@H](N)Cc1ccc(O)cc1)C(=O)N[C@@H](CS)C(=O)O | broth microdilution | MTCC 1688 | – | – | 37 °C | 50 mg/L |

For quick reference, copied from above:
| SMILES | method | strain | medium | time | temperature | MIC |
| --- | --- | --- | --- | --- | --- | --- |
| Cn1ccc(=O)nc1Sc1ccc([N+](=O)[O-])cc1[N+](=O)[O-] | – | ATCC 29853 | – | – | – | 125 mg/L |
